Measured values from different studies.
Each numbered part is a random draw from the data of one study; scales do not carry over between parts.

Sample 1
Target: Centromere-binding protein 1, full length, His-tagged (CBF1, Saccharomyces cerevisiae, UniProt P17106, residues 1-351)
Sequence of UniProt P17106 (whole entry, looked up): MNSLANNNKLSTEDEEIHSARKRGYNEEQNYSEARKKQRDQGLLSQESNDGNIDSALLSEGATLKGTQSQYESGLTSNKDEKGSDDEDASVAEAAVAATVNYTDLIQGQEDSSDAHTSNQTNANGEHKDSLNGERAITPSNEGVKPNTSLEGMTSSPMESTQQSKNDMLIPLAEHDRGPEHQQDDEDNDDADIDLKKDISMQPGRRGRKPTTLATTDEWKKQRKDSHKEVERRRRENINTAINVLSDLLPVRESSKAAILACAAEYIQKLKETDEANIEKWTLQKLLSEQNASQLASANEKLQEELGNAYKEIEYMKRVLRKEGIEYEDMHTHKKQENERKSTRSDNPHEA
Technique: competition protein-binding microarray
Form: double-stranded DNA, one strand shown
Sample: in vitro
Tested at: 2 µM
Notes: whole 60-bp probe, lowest competitor level
Added: Pho4 competitor, 0.05 µM
Direction: higher = stronger binding
Shared flanks, not repeated: … GTCTTGATTCGCTTGACGCTGCTG
Oligonucleotide | fluorescence intensity
CATACCCAACCTTGGGTGGTGGGTGAAGATATTTGT | 54.1 a.u.
GTCTTGTCTCATTGAGACGTGGGTGTCCCCACTTCA | 68.9 a.u.
ATAGCAAAGAACCGTCACAGATTCATTATTGACCTT | 116 a.u.
CGTCCTAGTGATTGGGCAGTGGGTGCCATGAGGAAG | 77.7 a.u.
GTAGTTCCCAGTCTTTTCGTGATGGTCAACTTAACG | 69 a.u.

Sample 2
Target: RING finger protein unkempt homolog, zinc fingers 1-6, GST-SBP tag (UNK, Homo sapiens, UniProt Q9C0B0, residues 30-357)
Sequence of UniProt Q9C0B0 (30-357, looked up): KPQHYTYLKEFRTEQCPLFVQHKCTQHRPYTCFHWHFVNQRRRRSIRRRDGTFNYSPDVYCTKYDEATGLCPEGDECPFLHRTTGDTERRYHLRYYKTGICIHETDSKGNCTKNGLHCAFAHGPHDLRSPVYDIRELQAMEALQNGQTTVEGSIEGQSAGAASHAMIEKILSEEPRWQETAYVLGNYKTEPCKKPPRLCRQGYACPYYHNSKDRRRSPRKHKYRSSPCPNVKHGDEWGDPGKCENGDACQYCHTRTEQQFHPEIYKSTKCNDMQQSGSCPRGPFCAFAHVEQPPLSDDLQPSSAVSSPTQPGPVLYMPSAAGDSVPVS
Technique: RNA Bind-n-Seq
Form: RNA
Sample: in vitro
Tested at: not given
Notes: RNA with constant flanks, human and mouse sites, ends assumed
Relative to: input RNA pool
Direction: higher = stronger binding
Shared flanks, not repeated: GGGAGUUCUACAGUCCGACGAUC … CAACAGAGGAUUGAGCAUCA
Oligonucleotide | bound/input enrichment [ratio]
UUAGCUAGUGGAGCCACUUUCUGUAUUGUUACAUGGACAUAUGUAGCAACACAAGUCGGAAUAGAAUGGAACCUGUCCCCUGUUGGCAGAGUUACCCCAAAGGAAUGGAGGAAUCAGUAA | 0.244
GACGAGAAGAUGAGCCCAACUAUUGGAAAGCAGCUGCUUAAGGGGUCAGCUGAUCCUCUGAACAGUGCUUUCCAUCUGACCUAUAACAUGGUUUUGAACUUACUAAGAGUAGAAGAAAUU | 0.115
GAUACAUCCAACAGAGUAACAGUCAAGAGCCUUGAUUAUAGUAGGAAGCUGAAAAAUGUAUUAGUUACCAUUUACUGGCUGGGAAAAGCAGCAAACAGCUGCACAUCCUACAGCGGAACG | 0.494
UUUCACAUUUGGUGAGUGGGGCAGCAUUUCCUUCUCCCACUGCUGCUGAGAUGGCAGAAAUUAGUCGAAUUCAGUAUGAAAUGGAAUACACCGAAGGUAUUAGUCAGCGAAUGAGGGUCC | 2.44
CAGAGAACUUUACUGAAGAAAGUCUGGAAAGUCUGGCGUUCCGUAGUGCAAAAGCAGUGGAAAGAUGUGGUAGAAAGAGCUUGUCAAGCAAGAGCUGAAGAAGUUUGUAUCCAGAUUUCC | 0.149

Sample 3
Substance: PhoQ, residues 284 288 289 292 302 303 SSLVEF
Technique: Sort-seq
Refers to: YFP reporter
Sample: E. coli
Notes: PhoQ-PhoP variant library
Added: 10 µM Mg2+
Relative to: high Mg2+ state
Direction: higher = stronger signaling
target | fold induction
PhoP, residues 12 14 15 18 19 TQALL (Escherichia coli, UniProt P23836) | 8.83
PhoP, residues 12 14 15 18 19 NYFRM (Escherichia coli, UniProt P23836) | 4.11
PhoP, residues 12 14 15 18 19 QYFSL (Escherichia coli, UniProt P23836) | 12.2

Sample 4
Target: Interferon regulatory factor 7, full length, phosphomimetic (IRF7, Homo sapiens, UniProt Q92985, residues 1-503, S471D/S472D/S475D/S476D/S477D/S483D/S484D/S487D)
Sequence of UniProt Q92985 (whole entry, unmodified, looked up): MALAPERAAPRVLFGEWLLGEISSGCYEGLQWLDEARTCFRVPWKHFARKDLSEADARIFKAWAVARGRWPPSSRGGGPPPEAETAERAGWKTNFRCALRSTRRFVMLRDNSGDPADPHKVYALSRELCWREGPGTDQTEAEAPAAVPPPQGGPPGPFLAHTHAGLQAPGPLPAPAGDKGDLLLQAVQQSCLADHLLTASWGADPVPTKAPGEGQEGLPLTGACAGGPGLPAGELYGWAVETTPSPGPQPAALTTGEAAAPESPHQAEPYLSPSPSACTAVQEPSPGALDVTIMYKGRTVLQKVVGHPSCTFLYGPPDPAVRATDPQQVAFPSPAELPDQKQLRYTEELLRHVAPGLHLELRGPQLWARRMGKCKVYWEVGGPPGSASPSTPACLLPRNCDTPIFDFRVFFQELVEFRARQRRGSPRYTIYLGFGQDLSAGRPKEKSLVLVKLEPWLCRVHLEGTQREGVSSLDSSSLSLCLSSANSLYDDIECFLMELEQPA
Technique: protein-binding microarray
Form: double-stranded DNA, one strand shown
Sample: in vitro
Tested at: 2200 nM top
Notes: 60-bp whole probe
Added: salmon DNA 0.4 mg/ml
Relative to: random background probes
Direction: higher = stronger binding
Shared flanks, not repeated: GCCTAGCAC … GTCTTGATTCGCTTGACGCTGCTG
Oligonucleotide | fitted relative affinity [z-score]
AACGGACTGCTTTTCCTGACGTGCTAG | 0.816
GACGAACTGGGAACTGGAGACGTGCTA | -0.333
TCAAGAATGGGGTTTGCAACTGTGCTA | -0.243
CCCGCCCCGCCCCGCCCGCAGTGCTAG | -0.53
TTAGATATCAGTTTTGATTAGTGCTAG | 0.605
TCATGCTTTCTTTTTGCACTGTGCTAG | 4.72
TTAGGTTTCCTTTTCCTTCAGTGCTAG | 5.86

Excerpt of the above (sample 3):
target | fold induction
PhoP, residues 12 14 15 18 19 TQALL (Escherichia coli, UniProt P23836) | 8.83
PhoP, residues 12 14 15 18 19 NYFRM (Escherichia coli, UniProt P23836) | 4.11
PhoP, residues 12 14 15 18 19 QYFSL (Escherichia coli, UniProt P23836) | 12.2
